Results collected from several papers.
Lines come from different studies, so protocols differ. Numbers after ± are the reported error.
SIRT2: NAD-dependent protein deacetylase sirtuin-2 (SIRT2, Homo sapiens, UniProt Q8IXJ6)
UniProt Q8IXJ6, sequence (whole entry, looked up): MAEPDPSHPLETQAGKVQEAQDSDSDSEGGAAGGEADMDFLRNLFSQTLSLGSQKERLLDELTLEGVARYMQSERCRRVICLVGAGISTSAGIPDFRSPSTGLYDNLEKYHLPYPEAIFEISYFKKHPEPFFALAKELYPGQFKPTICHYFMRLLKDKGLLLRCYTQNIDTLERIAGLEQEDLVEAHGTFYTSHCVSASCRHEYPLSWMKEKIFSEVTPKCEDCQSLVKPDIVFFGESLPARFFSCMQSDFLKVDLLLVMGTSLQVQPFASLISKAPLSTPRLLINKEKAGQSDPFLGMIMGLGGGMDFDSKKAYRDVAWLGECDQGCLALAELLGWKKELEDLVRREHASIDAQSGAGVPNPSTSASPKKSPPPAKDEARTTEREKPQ
UniProt P30101, sequence (whole entry, looked up): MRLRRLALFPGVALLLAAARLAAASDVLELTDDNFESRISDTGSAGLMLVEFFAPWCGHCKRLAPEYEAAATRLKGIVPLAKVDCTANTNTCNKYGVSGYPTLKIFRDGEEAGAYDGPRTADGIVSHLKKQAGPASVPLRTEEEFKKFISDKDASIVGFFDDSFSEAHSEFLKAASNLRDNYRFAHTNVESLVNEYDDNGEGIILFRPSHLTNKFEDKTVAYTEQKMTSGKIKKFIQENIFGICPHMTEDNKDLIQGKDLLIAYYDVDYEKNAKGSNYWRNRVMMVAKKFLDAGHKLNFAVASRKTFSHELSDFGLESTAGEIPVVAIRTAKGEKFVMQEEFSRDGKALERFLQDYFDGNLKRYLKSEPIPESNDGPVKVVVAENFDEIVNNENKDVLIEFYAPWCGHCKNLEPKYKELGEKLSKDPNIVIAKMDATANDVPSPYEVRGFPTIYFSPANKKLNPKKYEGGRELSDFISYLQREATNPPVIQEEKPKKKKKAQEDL
UniProt Q08499, sequence (whole entry, looked up): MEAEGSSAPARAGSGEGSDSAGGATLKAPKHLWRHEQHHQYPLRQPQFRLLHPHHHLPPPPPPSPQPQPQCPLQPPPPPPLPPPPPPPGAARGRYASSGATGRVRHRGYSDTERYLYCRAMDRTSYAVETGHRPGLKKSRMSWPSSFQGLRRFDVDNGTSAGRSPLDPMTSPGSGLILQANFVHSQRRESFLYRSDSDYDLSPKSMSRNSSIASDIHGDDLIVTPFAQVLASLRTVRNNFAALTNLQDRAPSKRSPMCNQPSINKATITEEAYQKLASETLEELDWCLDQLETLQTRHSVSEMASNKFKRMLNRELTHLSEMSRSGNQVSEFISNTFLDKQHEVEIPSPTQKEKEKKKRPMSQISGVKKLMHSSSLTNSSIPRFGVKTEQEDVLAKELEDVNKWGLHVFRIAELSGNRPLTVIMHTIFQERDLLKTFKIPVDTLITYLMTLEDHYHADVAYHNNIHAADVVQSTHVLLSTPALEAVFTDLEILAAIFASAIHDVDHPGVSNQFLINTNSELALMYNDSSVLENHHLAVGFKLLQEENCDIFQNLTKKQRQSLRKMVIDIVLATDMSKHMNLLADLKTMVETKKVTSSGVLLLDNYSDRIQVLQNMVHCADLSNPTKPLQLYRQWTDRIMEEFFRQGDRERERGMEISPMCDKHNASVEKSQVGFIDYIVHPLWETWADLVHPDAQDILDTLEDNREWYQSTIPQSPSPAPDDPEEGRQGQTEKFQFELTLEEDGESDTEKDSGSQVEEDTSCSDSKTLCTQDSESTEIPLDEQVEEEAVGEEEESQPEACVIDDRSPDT
UniProt D0VWV4, sequence (whole entry, looked up): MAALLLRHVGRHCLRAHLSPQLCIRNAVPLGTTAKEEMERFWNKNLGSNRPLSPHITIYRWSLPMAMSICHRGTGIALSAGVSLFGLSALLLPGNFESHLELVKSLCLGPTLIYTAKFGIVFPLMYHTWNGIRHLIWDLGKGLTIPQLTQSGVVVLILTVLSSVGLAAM
UniProt Q9BV86, sequence (whole entry, looked up): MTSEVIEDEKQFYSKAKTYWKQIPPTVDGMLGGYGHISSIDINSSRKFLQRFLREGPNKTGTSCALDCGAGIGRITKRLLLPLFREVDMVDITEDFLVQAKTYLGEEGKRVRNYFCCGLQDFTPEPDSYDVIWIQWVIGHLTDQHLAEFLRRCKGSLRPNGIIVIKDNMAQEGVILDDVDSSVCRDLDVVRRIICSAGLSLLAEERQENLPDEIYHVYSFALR
UniProt A5GZW8, sequence (whole entry, looked up): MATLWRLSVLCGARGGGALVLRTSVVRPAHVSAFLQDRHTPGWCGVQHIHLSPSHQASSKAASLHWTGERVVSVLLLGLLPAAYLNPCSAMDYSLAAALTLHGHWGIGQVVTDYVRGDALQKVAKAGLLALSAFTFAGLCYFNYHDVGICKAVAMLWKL
UniProt Q007T0, sequence (whole entry, looked up): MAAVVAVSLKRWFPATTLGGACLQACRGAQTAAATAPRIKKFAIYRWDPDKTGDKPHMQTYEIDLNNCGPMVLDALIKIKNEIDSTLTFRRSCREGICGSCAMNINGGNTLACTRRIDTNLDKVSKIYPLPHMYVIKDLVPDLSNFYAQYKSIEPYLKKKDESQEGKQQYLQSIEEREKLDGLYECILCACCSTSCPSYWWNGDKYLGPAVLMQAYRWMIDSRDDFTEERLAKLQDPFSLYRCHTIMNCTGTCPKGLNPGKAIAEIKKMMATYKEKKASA
UniProt P45984, sequence (whole entry, looked up): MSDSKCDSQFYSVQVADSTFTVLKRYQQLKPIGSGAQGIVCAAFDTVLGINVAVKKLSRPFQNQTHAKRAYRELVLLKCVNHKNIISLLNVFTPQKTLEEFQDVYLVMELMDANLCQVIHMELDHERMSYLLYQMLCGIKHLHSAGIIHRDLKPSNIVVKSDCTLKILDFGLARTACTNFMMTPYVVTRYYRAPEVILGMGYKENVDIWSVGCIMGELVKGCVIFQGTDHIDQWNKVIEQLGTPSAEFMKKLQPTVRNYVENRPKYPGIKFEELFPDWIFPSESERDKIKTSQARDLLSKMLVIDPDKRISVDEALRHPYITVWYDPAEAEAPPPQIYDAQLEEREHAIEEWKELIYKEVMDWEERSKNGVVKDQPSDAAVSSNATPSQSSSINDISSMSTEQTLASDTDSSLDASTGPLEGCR
UniProt Q0QF01, sequence (whole entry, looked up): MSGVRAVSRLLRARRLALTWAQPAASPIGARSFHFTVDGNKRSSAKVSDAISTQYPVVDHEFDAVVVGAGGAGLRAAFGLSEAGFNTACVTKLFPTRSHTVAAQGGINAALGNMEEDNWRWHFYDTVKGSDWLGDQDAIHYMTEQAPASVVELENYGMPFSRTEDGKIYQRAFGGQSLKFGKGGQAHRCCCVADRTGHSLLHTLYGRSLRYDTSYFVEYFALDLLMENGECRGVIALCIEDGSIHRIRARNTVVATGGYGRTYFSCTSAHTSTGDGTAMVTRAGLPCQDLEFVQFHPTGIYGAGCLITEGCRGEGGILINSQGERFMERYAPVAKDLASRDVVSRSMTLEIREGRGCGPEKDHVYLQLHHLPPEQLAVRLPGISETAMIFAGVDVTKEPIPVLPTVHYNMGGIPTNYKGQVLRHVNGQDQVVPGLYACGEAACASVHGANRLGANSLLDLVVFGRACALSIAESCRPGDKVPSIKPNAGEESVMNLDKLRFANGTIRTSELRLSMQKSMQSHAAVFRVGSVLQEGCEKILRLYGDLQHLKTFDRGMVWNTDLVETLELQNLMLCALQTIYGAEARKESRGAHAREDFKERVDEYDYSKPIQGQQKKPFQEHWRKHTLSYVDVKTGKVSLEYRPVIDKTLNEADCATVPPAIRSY
UniProt P28074, sequence (whole entry, looked up): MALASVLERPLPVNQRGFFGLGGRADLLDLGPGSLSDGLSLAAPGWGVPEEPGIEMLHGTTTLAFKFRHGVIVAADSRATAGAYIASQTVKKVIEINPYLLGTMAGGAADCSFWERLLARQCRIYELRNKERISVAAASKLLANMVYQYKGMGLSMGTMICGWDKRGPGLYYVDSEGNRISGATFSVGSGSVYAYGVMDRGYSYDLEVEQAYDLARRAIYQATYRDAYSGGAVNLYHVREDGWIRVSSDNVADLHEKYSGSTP
UniProt P0A7G6, sequence (whole entry, looked up): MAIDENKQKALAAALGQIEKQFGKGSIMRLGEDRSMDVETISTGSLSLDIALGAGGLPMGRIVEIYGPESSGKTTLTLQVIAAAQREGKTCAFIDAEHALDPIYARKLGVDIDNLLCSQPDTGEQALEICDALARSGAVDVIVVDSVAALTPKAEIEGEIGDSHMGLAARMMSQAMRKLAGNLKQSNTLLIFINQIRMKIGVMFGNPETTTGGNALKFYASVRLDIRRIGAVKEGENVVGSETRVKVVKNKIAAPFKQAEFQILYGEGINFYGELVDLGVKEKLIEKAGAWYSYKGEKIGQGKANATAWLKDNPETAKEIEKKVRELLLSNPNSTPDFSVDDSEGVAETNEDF
UniProt Q01650, sequence (whole entry, looked up): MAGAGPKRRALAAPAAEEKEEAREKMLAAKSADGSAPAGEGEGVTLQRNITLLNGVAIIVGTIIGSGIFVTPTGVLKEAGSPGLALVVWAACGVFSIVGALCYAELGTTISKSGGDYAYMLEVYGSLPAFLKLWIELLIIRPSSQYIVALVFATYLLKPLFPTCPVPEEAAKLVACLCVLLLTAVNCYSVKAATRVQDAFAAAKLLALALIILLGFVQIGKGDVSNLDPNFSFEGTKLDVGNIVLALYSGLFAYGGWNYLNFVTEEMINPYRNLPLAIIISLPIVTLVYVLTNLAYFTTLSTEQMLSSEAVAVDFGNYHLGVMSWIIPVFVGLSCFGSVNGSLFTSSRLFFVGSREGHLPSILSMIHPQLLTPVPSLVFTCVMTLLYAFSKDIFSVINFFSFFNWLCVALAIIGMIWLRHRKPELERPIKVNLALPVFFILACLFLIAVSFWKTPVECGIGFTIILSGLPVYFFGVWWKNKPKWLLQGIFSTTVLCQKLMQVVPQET

target	assay	system	conditions	IC50 [µM]	Compound
GLO1 (Homo sapiens, UniProt Q04760)	enzyme activity, inhibitor			39	NS(=O)(=O)c1ccc(/N=N/c2cc3ccccc3c(C=O)c2O)cc1
PDIA3 (Homo sapiens, UniProt P30101)	enzyme activity, inhibitor, absorbance		pH 7.6	> 200	CCCCCc1ccc(S(=O)(=O)N2CC2C(=O)OC)cc1 (stereo not drawn)
MAPK9 (Homo sapiens, UniProt P45984)	kinase activity, inhibitor, radiometric		pH 7.5, 30 °C, together with: GST-c-Jun substrate	1500 ± 109	CC(C)C[C@@H](NC(=O)[C@@H](Cc1ccccc1)NC(=O)[C@H]1CCCN1C(=O)[C@@H](CCC(N)=O)NC(=O)[C@H](NC(=O)[C@H]1CCCN1C(=O)[C@@H](CCCNC(=N)N)NC(=O)[C@@H](CO)NC(=O)[C@@H](CCC(N)=O)NC(=O)[C@@H](CC(=O)O)NC(=O)[C@H](N)[C@H](C)O)C(C)C)C(=O)N[C@H](CC(N)=O)C(=O)N[C@H](CC(C)C)C(=O)N[C@@H](C(=O)N[C@@H](C(=O)N1CCC[C@@H]1C(=O)N[C@H](CCCNC(=N)N)C(=O)N[C@H](CCCCN)C(=O)N1CCC[C@@H]1C(=O)N[C@H](CCCNC(=N)N)C(N)=O)[C@H](C)O)[C@H](C)O
SIRT2	enzyme activity, inhibitor			7.3	O=C(NO)c1ccc(Cn2sc3ccccc3c2=O)cc1
Golgi alpha-mannosidase IIb (Drosophila melanogaster, UniProt Q9VF33)			pH 6.0, 0.5 mM CoCl2, together with: 2 mM pNP-Man	55	OC[C@H]1[C@@H](O)[C@@H](O)CN1Cc1ccc(Br)cc1
PSMB5 (Homo sapiens, UniProt P28074)	chymotrypsin-like activity, inhibitor	purified 20S proteasome	15 min preincubation, 37 °C, together with: Suc-Leu-Leu-Val-Tyr-AMC substrate	2.73 ± 0.2	C=C(NC(=O)C(=C)NC(=O)c1csc(C2=NC3c4csc(n4)C4NC(=O)c5csc(n5)C(C(C)(O)C(C)O)NC(=O)C5CSC(=N5)C(=CC)NC(=O)C(C(C)O)NC(=O)c5csc(n5)C3(CC2)NC(=O)C(=C)NC(=O)C(=C)NC(=O)C(C)NC(=O)C(C(C)CC)NC2C=Cc3c(C(C)O)cc(nc3C2O)C(=O)OC4C)n1)C(N)=O (stereo not drawn)
SIRT2				0.7	CCCCCCCCCCCCCC(=S)NCCCC[C@H](NC(=O)CNC(=O)CN)C(=O)NCC(=O)O
FLT3 (Homo sapiens, UniProt P36888)	enzyme activity, inhibitor, radiometric			53.5	c1cc2cc(c1)Cn1cc(nn1)Cn1nc(-c3ccc(N4CCNCC4)nc3)c3cnc(nc31)NCc1cn(nn1)C2
PDE4D (Homo sapiens, UniProt Q08499)	enzyme activity, inhibitor			1.9	COCCCN1CCc2c(Cc3ccc(Cl)cc3)[nH]c3c(OC(F)F)ccc(c23)C1=O
Cytochrome P450 3A4 (CYP3A4, Homo sapiens, UniProt P08684)	enzyme activity	human liver microsomes	together with: midazolam, testosterone	> 100	C=CC(=O)Nc1cc(Nc2nccc(-c3cn(C)c4ccccc34)n2)c(OCC(F)(F)F)nc1N(C)CCN(C)C
Cytochrome P450 2A6 (CYP2A6, Homo sapiens, UniProt P11509)	enzyme activity, inhibitor	human, liver microsomes	1 h, pH 7.4	5	O=C1c2oc3cc(O)c(O)cc3c2C(=O)c2oc3cc(O)c(O)cc3c21
N-terminal Xaa-Pro-Lys N-methyltransferase 1 (Homo sapiens, UniProt Q9BV86)	enzyme activity, inhibitor, fluorescence			> 100	N=C(NCCCCC(N)C(N)=O)NCCSCC1OC(n2cnc3c(N)ncnc32)C(O)C1O (stereo not drawn)
Succinate dehydrogenase complex (Sus scrofa, UniProt A5GZW8+D0VWV4+Q007T0+Q0QF01)	enzyme activity, inhibitor, double-antibody sandwich ELISA			10.5	O=C(Nc1ccccc1Nc1ccccc1)c1cccnc1C(F)(F)F
SLC7A5 (Homo sapiens, UniProt Q01650)	transporter uptake, inhibitor, radiometric			13	N[C@@H](Cc1c[nH]c2ccc(OCc3cccc(-c4cccs4)c3)cc12)C(=O)O
Protein RecA (recA, Escherichia coli, UniProt P0A7G6)	ATPase activity, inhibitor, phosphomolybdate blue		together with: poly(dT) ssDNA	4.7	CCc1ccc(-c2cc(NC3CC(C)(C)NC(C)(C)C3)nc(-c3cc(C)ccc3O)c2)o1

Excerpt of the above:
target	assay	system	conditions	IC50 [µM]	Compound
Cytochrome P450 2A6 (CYP2A6, Homo sapiens, UniProt P11509)	enzyme activity, inhibitor	human, liver microsomes	1 h, pH 7.4	5	O=C1c2oc3cc(O)c(O)cc3c2C(=O)c2oc3cc(O)c(O)cc3c21
